Measurements gathered from unrelated publications.
Protocols differ between the studies behind these lines. Numbers after ± are the reported error.

C=C(c1ncc(C(=O)O)cn1)c1cc2c(cc1C)C(C)(C)CCC2(C)C  log2 fold change (RNA sequencing, refers to: Alb mRNA; rat, brain; dose not given, 24 h, single dose; reference: vehicle): -0.46
CC(=O)N[C@@H](CC(N)=O)C(=O)NCC(=O)N[C@@H](CCCNC(=N)N)C(=O)N[C@@H](C)C(N)=O  rate constant succinimide to α-Asp (1H NMR; sodium phosphate buffer 50 mM; pH 7.4, 28 °C): 0.086 h⁻¹
O=C(Nc1ccc(C(F)(F)F)cc1Cl)c1cc(Cl)ccc1O  tumour growth (SCID mice CWR22Rv1 xenograft; intraperitoneal, 25 mg/kg, 3 weeks): inhibited
CNc1oc(-c2cccc3ccccc23)nc1C#N  beta-cell mass (CD1 mice; ip, 24 mg/kg daily, 2 weeks): no effect
COc1ccc(C2CC(c3ccc(C)cc3)=Nc3ccccc3S2)cc1 (stereo not drawn)  blood glucose (rat, normal, overnight fasted; oral, 20 mg/kg, 120 min, oral glucose tolerance test, together with: glucose 3 g/kg oral): 113 ± 4.13 mg/dL
Nc1ccc(C(=O)NN=Cc2ccc(OCC(=O)Nc3ccc(Cl)cc3)cc2)cc1  inhibition (ABTS radical scavenging, ABTS; concentration not given, 6 min): 80.2%
Cc1cc2c(NC(=O)N[C@@H]3CC(C)(C)Oc4c(OC(F)(F)F)cccc43)cccc2cn1  efficacious plasma concentration (rat osteoarthritis pain model, plasma): 0.5 µg/mL
CC(C)(CCCC/C=C/CCCCCC(C)(C)C(=O)O)C(=O)O  reduction in plasma TC (rhesus monkey, spontaneous hyperlipidemia; 20 mg/kg, 2 weeks; reference: baseline): 31.8%
C=CC[C@H]1OC(=O)CCNC(=O)[C@H](C)N(C)C(=O)[C@H]([C@@H](C)CC)N(C)C(=O)[C@H]([C@@H](C)CC)NC(=O)[C@@H]2[C@@H](C)CCN2C1=O  protein phosphorylation (immunohistochemistry, refers to: p-PDGFR-β; mouse bile duct ligation fibrosis, liver; 5 to 10 mg/kg/day, 8 days from day 6): decreased
N[C@@H](Cc1ccccc1)C(=O)N1CCC[C@H]1C(=O)NCC(=O)NCC(=O)O  ΔG‡ at 298.15 K (diketopiperazine formation, Arrhenius plot, ESI-MS; 1-propanol; 70, 80, 90 °C, 0.5% acetic acid): 22.7 ± 1.91 kcal/mol
Oc1cc2nc(c1)CNCc1cc(O)cc(n1)CNC2  onset concentration (DPPH radical scavenging; tested range 1 to 1500 µM): 100 µM
O=C([O-])CN1CCN(CC(=O)[O-])CCN(CC(=O)NC[C@H]2CC[C@H](C(=O)N[C@H](Cc3cnc4ccccc4c3)C(=O)NCCCC[C@H](NC(=O)N[C@@H](CCC(=O)O)C(=O)O)C(=O)O)CC2)CCN(CC(=O)[O-])CC1.[64Cu+2]  mean radioactivity (gamma counting; human, biopsy cores, pathology negative): 33 ± 15 CPM
CC(C)(O)c1ccc(N2Cc3c(ccnc3-c3ccc(F)cc3OCC(F)(F)F)C2=O)cc1  glucosylceramide level (Gaucher disease mouse model, plasma; 10 mg/kg, 2 months once daily; reference: vehicle): 40 ± 4%
Cn1cncn1.[Ru+2].c1cc(-c2ccc3ccccc3n2)nc(-c2ccc3ccccc3n2)c1.c1ccc2cc3nc4c5cccnc5c5ncccc5c4nc3cc2c1  phototherapeutic index (M1 macrophages, BALB/c mouse bone marrow-derived; reference: dark EC50 over light EC50): 8
CCCCCCOC(=O)Cc1c(C)n(C(=O)c2ccc(Cl)cc2)c2ccc(OC)cc12  latency of nociceptive response (hot plate test; BALB/c mice; 50 mg/kg, 30 min): 13.7 ± 1.37 s
C=C1C[C@@]23CC[C@H]4[C@@](C)(CCC[C@@]4(C)C(=O)O[C@@H]4O[C@H](CO)[C@@H](O)[C@H](O)[C@H]4O)[C@@H]2CC[C@]1(O[C@@H]1O[C@H](CO[C@H]2O[C@H](CO)[C@@H](O)[C@H](O)[C@H]2O)[C@@H](O)[C@H](O)[C@H]1O[C@@H]1O[C@H](CO)[C@@H](O)[C@H](O)[C@H]1O)C3  protein level (immunoblot, refers to: FAS; C57BL/6N mouse, high-fat diet, liver; drinking water, 0.2 g/L, 16 weeks): decreased
N=C(N)NCCC[C@H](N)C(=O)N1CCC[C@H]1C(=O)NCC(=O)NCC(=O)O  ΔG‡ at 298.15 K (diketopiperazine formation, Arrhenius plot, ESI-MS; 1-propanol; 70, 80, 90 °C, 0.5% acetic acid): 23.2 ± 1.91 kcal/mol
CCN(C(=O)c1cc(F)ccc1Oc1nncnc1N1CCC2(C1)CN([C@H](CCCN(C)CCOC)C(C)C)C2)C(C)C  increase in lifespan (mouse, sample A AML PDX; all dose levels; reference: vehicle): > 169%
COc1cc(CNC(=O)C[C@H](C)CCC=C(C)C)ccc1OCc1cn(-c2ccc(Cl)c(Cl)c2)nn1  growth percent (MDA-MB-468 breast cancer cells; SRB; 10 µM, 48 h): 55%
C[C@H](NC(=O)COC(=O)[C@H](C)NC(=O)CO)C(=O)O  depolymerization rate constant (water; pH 5, 25 °C): 0.016 h⁻¹
CC(C)[C@H](NC(=O)CN)C(=O)N[C@@H](CCCCN)C(=O)NCC(=O)N[C@@H](CC(=O)O)C(=O)N[C@@H](CCCCN)C(=O)NCC(=O)N[C@@H](CC(N)=O)C(=O)N1CCC[C@H]1C(=O)NCC(=O)N[C@@H](Cc1c[nH]c2ccccc12)C(=O)N1CCC[C@H]1C(=O)NCC(=O)N[C@@H](C)C(=O)N1CCC[C@H]1C(=O)O  cell adhesion (SCC-9 squamous cell carcinoma, human; 100 µg/mL coating, peptide-coated plates; reference: input cells): 1.9%
COc1cc(/C=C/C=C2\SC(=S)NC2=O)ccc1O  labelling time (chicken embryo neural tube; 10 µM): < 30 min
CCCCCCCCCn1cc(C(N)(CO)CO)nn1  activated microglia and astrocytes (APP/PS1 mouse, cortex, hippocampus; dose not given): decreased
CC(=O)[O-].O.O.O.O.[Mn+2].[O-]c1ccc(Br)cc1C=NCCN1CCOCC1  inhibition (nitric oxide scavenging; 240 µM): 52%
CCc1nnc(NS(=O)(=O)c2ccc(NC(=S)NC(=O)/C=C/c3ccc(F)cc3)cc2)s1  tumour weight (BE(2)-C xenograft, athymic nude mice; intraperitoneal, 20 mg/kg daily, 3 weeks; reference: vehicle): ~60%
CCCCCCCOC(=O)Cc1c(C)n(C(=O)c2ccc(Cl)cc2)c2ccc(OC)cc12  latency of nociceptive response (hot plate test; BALB/c mice; 100 mg/kg, 30 min): 16.6 ± 0.56 s
COC1C=CC=C(C)C(=O)NC2=CC(=O)C(NCCN(C)C)=C(CC(C)CC(OC)C(O)C(C)C=C(C)C1OC(N)=O)C2=O (stereo not drawn)  muscle gene signature (GSEA; mouse, Rh30 xenograft; dose not given): increased
COc1cc(Cn2ccc3cc(C(=O)NCC45CC6CC(CC(C6)C4)C5)ccc32)ccc1C(=O)NO  microglia IBA1 intensity (immunohistochemistry; 5xFAD mice, brain; intraperitoneal, 10 mg/kg daily, 2 months; reference: vehicle): decreased
C[C@@H](N)C1CCN(S(=O)(=O)c2cccc3cnccc23)CC1  hemorrhage score (spontaneously hypertensive rat, transient MCAO; intraperitoneal, 10 mg/kg, scale 0-2; direction not given): 0.43
COC(=O)C=CCCC(NC(=O)c1ccncc1C(=O)O)C(=O)NC(C(=O)N1CC(=O)CC1C(=O)NC(C(=O)NC(C(N)=O)C1CCCCC1)C1CCCCC1)C(C)(C)C (stereo not drawn)  AUC of jugular flow (New Zealand White rabbit; dose not given, 35 to 135 min, venous stasis reperfusion, unit not given; reference: baseline): 662
N[C@@H](Cc1c[nH]cn1)C(=O)N1CCC[C@H]1C(=O)NCC(=O)NCC(=O)O  ΔG‡ at 298.15 K (diketopiperazine formation, Arrhenius plot, ESI-MS; 1-propanol; 70, 80, 90 °C, 0.5% acetic acid): 22.7 ± 0.717 kcal/mol
Cc1nc(C)c(C=[N+]([O-])C(C)(C)C)nc1C  increase in protein level (Western blot, refers to: TFAM; MPTP mouse model, substantia nigra cytosol; 30 mg/kg): 31.7%
COc1ccc(C2CC(c3ccc(C)cc3)=Nc3ccccc3S2)cc1OC (stereo not drawn)  blood glucose (Wistar rat, STZ-induced diabetes; oral, 20 mg/kg once daily, day 21): 120 ± 4.88 mg/dL
COc1cc(CNC(=O)C[C@H](C)CCC=C(C)C)ccc1OCc1cn(-c2ccc([N+](=O)[O-])cc2)nn1  growth percent (SF-268 CNS cancer cells; SRB; 10 µM, 48 h): 88.8%
COc1c2c(cc3oc(COC4OC(CO)C(O)C(O)C4O)cc(=O)c13)OC(C(C)(C)O)C2 (stereo not drawn)  hot plate latency (analgesia; mouse; oral, 1 mg/kg, 1.5 h): 9.67 ± 1.16 s
O=C(NCCCCc1ccccc1)n1c(=O)oc2cc(-c3ccc(F)cc3)ccc21  lung long-chain ceramide levels (mouse, lung; intraperitoneal, 10 mg/kg, 3 h): no effect
CCCCCCCCCCCCCC(=O)N1CCC[C@H]1C(=O)N[C@@H](CO)C(=O)N[C@@H](CCC(N)=O)C(=O)N[C@@H](CO)C(=O)N[C@@H](CCCCNC(=O)c1ccc(Br)cc1)C(=O)N[C@@H](CO)C(=O)N[C@@H](CCCCNC(=O)c1ccc(Br)cc1)C(=O)N[C@@H](C)C(=O)O  Ki67-positive cells reduction (female SCID mouse, MDA-MB-231 fat pad xenograft, tumour; intratumoral, dose not given, alternate days for one month; reference: vehicle): ~5 fold
Cc1cc2c(cc1C1(c3ncc(C(=O)O)cn3)CC1)C(C)(C)CCC2(C)C  log2 fold change (RNA sequencing, refers to: Cga mRNA; rat, brain; dose not given, 24 h, single dose; reference: vehicle): 4.22
COc1cc2c(NC3CCN(C(C)C)CC3)cc(N3CCOCC3)nc2cc1OCCCN1CCCC1  sEPSC amplitude (synaptic transmission; 5xFAD mice, dentate granule cells; dose not given, chronic treatment): no effect

A few entries again:
COc1ccc(C2CC(c3ccc(C)cc3)=Nc3ccccc3S2)cc1OC (stereo not drawn)  blood glucose (Wistar rat, STZ-induced diabetes; oral, 20 mg/kg once daily, day 21): 120 ± 4.88 mg/dL
CC(C)(O)c1ccc(N2Cc3c(ccnc3-c3ccc(F)cc3OCC(F)(F)F)C2=O)cc1  glucosylceramide level (Gaucher disease mouse model, plasma; 10 mg/kg, 2 months once daily; reference: vehicle): 40 ± 4%
COc1c2c(cc3oc(COC4OC(CO)C(O)C(O)C4O)cc(=O)c13)OC(C(C)(C)O)C2 (stereo not drawn)  hot plate latency (analgesia; mouse; oral, 1 mg/kg, 1.5 h): 9.67 ± 1.16 s
C=CC[C@H]1OC(=O)CCNC(=O)[C@H](C)N(C)C(=O)[C@H]([C@@H](C)CC)N(C)C(=O)[C@H]([C@@H](C)CC)NC(=O)[C@@H]2[C@@H](C)CCN2C1=O  protein phosphorylation (immunohistochemistry, refers to: p-PDGFR-β; mouse bile duct ligation fibrosis, liver; 5 to 10 mg/kg/day, 8 days from day 6): decreased
